Measured values from different studies.
Each line is one published result; not all experiments were run side by side. Numbers after ± are the reported error.

COC(=O)C(Cc1c[nH]cn1)NC(=O)C1(C)C(O)CCC2(C)C1CCC1(C)C2CC=C2C3C(C)C(C)CCC3(C)CCC21C (stereo not drawn) — clinical activity score (rat TNBS-induced colitis; oral, dose not given, day 9; direction not given): 1.55 ± 1.07
O=C(NCc1cc(F)cc(F)c1)[C@@]1(O)CCN(c2ccc3[nH]ccc3c2)C1=O — T/C (CAKI-1 xenograft, mouse; oral, 10 mg/kg twice daily): 71%
CN(C)c1ccc(-c2oc3ccccc3c(=O)c2OCc2ccccc2)cc1 — blood glucose (diabetic rat; 5 mg/kg, day 7, p-nitrophenyl β-glucoside induced): 331 ± 4.73 mg/dL
CSCC[C@@H]1NC(=O)[C@H](CCCCN)NC(=O)[C@H]([C@@H](C)O)NC(=O)[C@H](CCCCN)NC(=O)[C@H](CC(C)C)NC(=O)[C@H](CCCCN)NC(=O)[C@H](CCCNC(=N)N)NC(=O)[C@@H]2CSSC[C@@H]3NC(=O)[C@@H]4CCCN4C(=O)[C@H](C(C)C)NC(=O)[C@H](CCC(N)=O)NC(=O)[C@H](CCC(N)=O)NC(=O)CNC(=O)[C@H](CC(C)C)NC(=O)[C@@H]4CSSC[C@H](NC(=O)[C@H]([C@@H](C)O)NC(=O)[C@H](C)NC(=O)[C@H](CSSC[C@@H](C(=O)N[C@@H](CO)C(=O)N[C@@H](CCCNC(=N)N)C(=O)N[C@H](C(N)=O)[C@@H](C)O)NC(=O)[C@@H]5CCCN5C(=O)[C@H](CC(N)=O)NC1=O)NC(=O)[C@@H]1CCCN1C(=O)[C@H](CC(=O)O)NC(=O)[C@H](CSSC[C@H](NC(=O)[C@H](CCCNC(=N)N)NC(=O)[C@H](CCCNC(=N)N)NC(=O)[C@H](CO)NC(=O)[C@@H](N)CO)C(=O)N[C@@H](C(C)C)C(=O)N[C@@H](CCCNC(=N)N)C(=O)N[C@@H](CC(C)C)C(=O)N[C@@H](Cc1c[nH]cn1)C(=O)N[C@@H](CCC(=O)O)C(=O)N[C@@H](CO)C(=O)N4)NC3=O)C(=O)N[C@@H](Cc1ccc(O)cc1)C(=O)N[C@H]1CSSC[C@H](NC(=O)[C@H](Cc3ccccc3)NC(=O)[C@H](C)NC(=O)[C@H](CC(N)=O)NC(=O)[C@H](Cc3ccccc3)NC(=O)[C@H](Cc3ccccc3)NC(=O)[C@H](CCCNC(=N)N)NC1=O)C(=O)N[C@@H](Cc1ccc(O)cc1)C(=O)N2 — food intake increase (male Long-Evans rats; intracerebroventricular, 1.0 nmol, 24 h; baseline: wild-type AgRP): ~50%
Cc1cc(O)c(C=O)c2c1C(=O)Oc1c(CO)c(O)c3c(c1O2)C(O)OC3=O (stereo not drawn) — male fertility (mating test; rat male, streptozotocin diabetic; 10 mg/kg): 85.4%
CCOC(=O)c1cc2c(N)c(C(=O)OC)sc2nc1C — urea excretion (Sprague-Dawley rats; subcutaneous, dose not given; baseline: vehicle): no effect
CCOc1ccc(C[C@@H]2NC(=O)[C@@H](N)CSSC[C@@H](C(=O)N3CCC[C@H]3C(=O)N[C@@H](CC(C)C)C(=O)NCC(N)=O)NC(=O)[C@H](CC(N)=O)NC(=O)[C@H](CCC(N)=O)NC(=O)[C@H]([C@@H](C)CC)NC2=O)cc1 — pA2 (antagonist; Bufo marinus urinary bladder; added: [5-ornithine]-oxytocin): 6.6
C=C(c1ccc(C(=O)O)c(F)c1)c1cc2c(cc1C)C(C)(C)C=CC2(C)C — log2 fold change (RNA sequencing, refers to: Scd1; rat, brain; dose not given, 24 h; baseline: vehicle): -1.95
Cc1ccc(C2=C(c3ccc([18F])cc3)C(=O)OC2(C)C)cc1 — normalized muscle uptake (PET/CT; mouse, SK-OV-3 xenograft, leg muscle; intraperitoneal, 1 h): 0.24 ± 0.2
S=c1n(CN2CCN(c3ccccc3)CC2)nc(C23CC4CC(CC(C4)C2)C3)n1-c1ccccc1 — inhibition in vivo (paw oedema; rat; intraperitoneal, 20 mg/kg): 22.5%
COc1ccc(C2CC(c3ccc(C)cc3)=Nc3ccccc3S2)cc1 (stereo not drawn) — blood glucose (oral glucose tolerance test; fasted normal rat, blood; oral, 20 mg/kg, 0 min, added: oral glucose 3 g/kg): 101 ± 4.11 mg/dL
O=C1c2c(cc(O)c3c2oc2cc(O)c(O)cc23)OC1Cc1ccc(O)c(O)c1 (stereo not drawn) — EC50 (DPPH scavenging, absorbance): 670 µM
CC[C@H]1[C@@H](O)[C@@H]2[C@H](CC[C@]3(C)[C@@H]([C@H](C)CCOS(=O)(=O)[O-])CC[C@@H]23)[C@@]2(C)CC[C@@H](O)C[C@@H]12.[Na+] — steatosis area (digital image analysis; ob/ob NASH mouse model, liver; oral, 10 mg/kg once daily, 8 weeks; baseline: area): 24.8 ± 2.3%
Fc1ccc(CSc2nnc(C34CC5CC(CC(C5)C3)C4)n2-c2ccccc2)cc1 — inhibition in vivo (paw oedema; rat; intraperitoneal, 40 mg/kg): 27%
COc1ccc(C2CC(c3ccc(C)cc3)=Nc3ccccc3S2)cc1OC (stereo not drawn) — alkaline phosphatase (Wistar rat, STZ-induced diabetes, serum; 10 mg/kg, 28 days): 206 IU/L
O=c1cc(-c2ccc(O)cc2)oc2c1c(O)cc1oc3cc(O)c(O)cc3c12 — EC50 (DPPH scavenging, absorbance): > 20000 µM
COC(=O)[C@H](CSSC(C)(C)[C@H](NC(=O)[C@H](CCC(=O)NC[C@H](O)[C@@H](O)[C@H](O)[C@H](O)CO)NC(=O)[C@H](CCC(=O)O)NC(=O)[C@H](CCC(=O)NC[C@H](O)[C@@H](O)[C@H](O)[C@H](O)CO)NC(=O)[C@H](CCC(=O)O)NC(=O)[C@H](CCC(=O)NC[C@H](O)[C@@H](O)[C@H](O)[C@H](O)CO)NC(=O)CC[C@H](NC(=O)c1ccc(NCc2cnc3nc(N)[nH]c(=O)c3n2)cc1)C(=O)O)C(=O)O)NC(=O)CC[C@H](NC(=O)c1ccc(NCc2cnc3nc(N)nc(N)c3n2)cc1)C(=O)O — CD172+ CD43− monocyte effect (flow cytometry; Lewis rat, adjuvant-induced arthritis, blood; 500 nmol/kg twice weekly × 1.5, added: folic acid, 500-fold molar excess): inhibited
O=C(NCCN1C(=O)C=CC1=O)[O][Pt-2]12([O]C(=O)NCCN3C(=O)C=CC3=O)([NH2+][C@@H]3CCCC[C@H]3[NH2+]1)[O]C(=O)C(=O)[O]2 — cleaved caspase-3 positive cells (immunohistochemistry; BALB/c mouse CT26 allograft, tumour; dose not given, day 12): 30%
COc1ccc(-c2oc3ccccc3c(=O)c2OCc2ccccc2)cc1 — blood glucose (diabetic rat; 7.5 mg/kg, day 21, p-nitrophenyl β-glucoside induced): 159 ± 4.14 mg/dL
CC(C)C[C@@H]1NC(=O)[C@H](CS)NC(=O)[C@H](CCCCN)NC(=O)[C@H](CC(=O)O)N(C(=O)[C@@H](N)Cc2c[nH]c3ccccc23)CCCNC(=O)NCCCCN([C@@H](C)C(N)=O)C1=O — bone destruction (micro-CT; DBA/1 mouse collagen-induced arthritis; intraperitoneal, 360 pg/g weekly; baseline: PBS): no effect
Cc1ccc(-c2nc3ccccc3[nH]2)o1 — IC50 (ABTS scavenging, absorbance): 1.42 µM
C=C(c1cc(F)c(C(=O)O)c(F)c1)c1cc2c(cc1C)C(C)(C)CCC2(C)C — log2 fold change (RNA sequencing, refers to: Lyve1; rat, brain; dose not given, 24 h; baseline: vehicle): 0.79
COc1ccc2c(c1OC)C(C(Cl)(Cl)Cl)N1CCc3cc4c(cc3C1=C2)OCO4 (stereo not drawn) — creatinine (rat, STZ-induced diabetic, serum; oral, 12 mg/kg, day 28): 1.04 ± 0.09 mg/dL
O=c1c(OCc2ccccc2)c(-c2ccc([N+](=O)[O-])cc2)oc2ccccc12 — blood glucose (diabetic rat; 5 mg/kg, day 7, p-nitrophenyl β-glucoside induced): 339 ± 4.9 mg/dL
CCOc1cncc(-c2ccc(NC(=O)C(CC)c3ccnc(NS(=O)(=O)C4CC4)n3)nc2)n1 (stereo not drawn) — selectivity ratio (enzyme activity, inhibitor, RapidFire mass spectrometry; dog; baseline: CTPS1 over CTPS2): 141
COc1ccc2c(c1)c(CC(=O)OCOC(C)=O)c(C)n2C(=O)c1ccc(Cl)cc1 — latency of nociceptive response (hot plate test; BALB/c mice; 50 mg/kg, 30 min): 14.9 ± 1.43 s
O=C([O-])CN1CCN(CC(=O)[O-])CCN(CC(=O)NC[C@H]2CC[C@H](C(=O)N[C@H](Cc3cnc4ccccc4c3)C(=O)NCCCC[C@H](NC(=O)N[C@@H](CCC(=O)O)C(=O)O)C(=O)O)CC2)CCN(CC(=O)[O-])CC1.[64Cu+2] — false-negative cores (prostate cancer patients, biopsy cores; below 66 CPM cut-off): 14%
O=c1c(OCc2ccccc2)c(-c2ccc(Cl)cc2)oc2ccccc12 — blood glucose (diabetic rat; 5 mg/kg, day 21, p-nitrophenyl β-glucoside induced): 176 ± 4.79 mg/dL
O=C1/C(=C/c2ccccc2)Oc2c1c(O)cc(O)c2-c1ccc(O)c(O)c1 — EC50 (DPPH scavenging, absorbance): 80 µM
Cc1ccc(=O)n(-c2ccc(O)cc2)c1 — GPX activity (BALB/c mouse, CCl4 liver injury, liver; oral, 1 mmol/kg daily, 4 weeks): increased
O=c1c(OCc2ccccc2)c(-c2cccc([N+](=O)[O-])c2)oc2ccccc12 — blood glucose (diabetic rat; 7.5 mg/kg, day 28, p-nitrophenyl β-glucoside induced): 148 ± 3.98 mg/dL
C[C@@H](O)[C@@H]1NC(=O)[C@H](CCCCN)NC(=O)[C@@H](Cc2ccc(NC(N)=O)cc2)NC(=O)[C@H](Cc2ccc(NC(=O)[C@@H]3CC(=O)NC(=O)N3)cc2)NC(=O)[C@H](NC(=O)[C@H](Cc2ccc(Cl)cc2)NC(=O)CN2CCN(CC(=O)O)CCN(CC(=O)O)CCN(CC(=O)O)CC2)CSSC[C@@H](C(=O)N[C@H](Cc2ccc(O)cc2)C(N)=O)NC1=O [gallium-68 labelled] — SUVpeak (PET/CT; human neuroendocrine tumour patients, liver lesions; 60 min): 21 ± 19
COc1cc(CN2CCN(c3ccc(OC(F)(F)F)cc3)CC2)c2cc3[n+](cc2c1O)CCc1cc2c(cc1-3)OCO2 — IC50 (ABTS scavenging, absorbance; 10 min): 11.6 µg/mL
COc1ccc2c(c1)c(CC(=O)OCC(=O)c1ccccc1)c(C)n2C(=O)c1ccc(Cl)cc1 — latency of nociceptive response (hot plate test; BALB/c mice; 75 mg/kg, 90 min): 16.6 ± 1.44 s
Cc1ccc(-c2oc3ccccc3c(=O)c2OCc2ccccc2)cc1 — blood glucose (diabetic rat; 5 mg/kg, day 14, p-nitrophenyl β-glucoside induced): 219 ± 4.9 mg/dL
CN(C)C(=O)c1ccnc(N2Cc3cn(Cc4ccc(F)cc4F)nc3C2)n1 — effect size d (refers to: Iba1+ cell number; cuprizone-fed mice, corpus callosum; dose not given, unit not given; baseline: vehicle): -2.16

Excerpt of the above:
S=c1n(CN2CCN(c3ccccc3)CC2)nc(C23CC4CC(CC(C4)C2)C3)n1-c1ccccc1 — inhibition in vivo (paw oedema; rat; intraperitoneal, 20 mg/kg): 22.5%
COc1ccc(C2CC(c3ccc(C)cc3)=Nc3ccccc3S2)cc1 (stereo not drawn) — blood glucose (oral glucose tolerance test; fasted normal rat, blood; oral, 20 mg/kg, 0 min, added: oral glucose 3 g/kg): 101 ± 4.11 mg/dL
O=C1c2c(cc(O)c3c2oc2cc(O)c(O)cc23)OC1Cc1ccc(O)c(O)c1 (stereo not drawn) — EC50 (DPPH scavenging, absorbance): 670 µM
